Experimental data collected from several papers.
Compare with care: the assays were run in different laboratories. Values joined by “and” are separate records of one study, mostly repeats; a detail may differ.

CC12CCCC(NS(=O)(=O)c3ccc(N)cc3)(C1)C1CC(C)(C)C1CC2 (centres unmarked)
inhibition (HT-29; cell growth or viability, CCK-8; 10 µM): < 50%

C[C@@H]1CC[C@@H]([C@@](O)(CNCc2ccccc2F)COCc2ccccc2)[C@H](OCc2ccccc2)C1
inhibition (A2780; cell growth or viability, MTT; 10 µM, 72 h): 95.3%

COC1CN([C@H]2CC[C@H]([C@@]3(C)Oc4c(Cl)cc(C(=O)NCc5c(SC)cc(C)[nH]c5=O)c(C)c4O3)CC2)C1
log2 fold change (RNA-seq, refers to: EPB41L4A; human, whole blood; dose not given, 24 h; baseline: pretreatment baseline): 1.18

Cc1c(Cl)cccc1Nc1ccccc1C(=O)[Se]CC(=O)Nc1cccc(C(F)(F)F)c1
mean growth percent (NCI60 leukemia subpanel; cell growth; 10 µM, 48 h, one-dose): -73.7%

Cc1nn(-c2cccc(N)c2)c(=O)c2cnc(Nc3ccc(N4CCNCC4)cc3)nc12
IC50 (EGFR (Homo sapiens, UniProt P00533); enzyme activity, inhibitor): > 10 µM

COC1CCN(C(=O)/C=C/c2nn(Cc3cccc(C(F)(F)F)c3)c3nc(NC(C)C)ncc23)CC1
EC50 (FLO-1; cell growth or viability, resazurin; 5 days): 3.9 µM

O=S(=O)(N[C@H]1CCO[C@@H](C2c3ccccc3CCc3ccccc32)C1)c1ccc(OC(F)(F)F)cc1
protein level (D425; immunoblot, refers to: CCL2; concentration not given): decreased

C=CCc1c(O)cc2c(c1O)C(=O)CC(c1ccc(O)cc1)O2 (centres unmarked)
growth inhibition (MCF7; cytotoxicity, MTT; 0.8 µM, 48 h): -10.2%

CN1CCCNC(=O)c2cccc(c2)C(=O)NCCCN(C)CCCNc2cccc3c2C(=O)c2cccc(c2C3=O)NCCC1
log2 fold change (SAS; RNA-Seq, refers to: COQ5 mRNA; 1 µM, 6 h; baseline: untreated cells): 1.1

C=CC(=O)Nc1cccc(Cn2ncc3cnc(Nc4cnn(CCOC)c4)nc32)c1
binding (human CDK4-cyclinD3; KINOMEscan; 100 nM; baseline: control): 75%

O=C(NC1CCOCC1)c1ccc([C@H]2[C@@H](F)[C@@H](F)C[C@@H](F)[C@H]2F)cc1
hepatic clearance (hepatocyte stability; cryopreserved mouse hepatocytes; 1 µM): 21 mL/min/kg

CC(C)c1ccc(N(C)c2ccc3c(c2)OCC[C@H]3CNc2cnccc2C(=O)O)cc1
IC50 (NCI-H1703; cell growth or viability, ATP luminescence; 7 days): 0.00805 µM

Cc1ncsc1-c1ccc(C(C)NC(=O)C2CC(O)CN2C(=O)C(NC(=O)CCCCCCCCCCN2CCCC(Nc3ncc(Cl)c(Nc4ccccc4S(=O)(=O)C(C)C)n3)C2)C(C)(C)C)cc1 (centres unmarked)
log2 fold change (22Rv1; RNA-seq, refers to: SEMA6A mRNA; concentration not given; baseline: DMSO): -1.24

COc1ccc(NC(=O)c2ccc3[nH]c(-c4ccc(N(C)C)cc4)nc3c2)cn1
dead cell to confluence ratio (HCEC-hTERT; IncuCyte; concentration not given, 24 h): 13.8 and 54.1 and 2.13

O=C(c1ccc(C2CCCCC2)cc1)N1CCCC1
hepatic clearance (hepatocyte stability; cryopreserved mouse hepatocytes; 1 µM): 79 mL/min/kg

Cc1cc(Cl)cc(-c2ccnc3cc(CN4C(=O)C5C(C4=O)C5(C)C)sc23)c1C[C@@H]1CNCCO1 (some centres unmarked)
cells in G1 phase (CHP-212 resistant cells (pooled); PI flow cytometry; 0.1 µM, 24 h): 70.5% and 67.6% and 71.7%

C=CC(=O)N1CCCC(n2c(=O)c3ncccc3n(Cc3ccc(Oc4ccccc4)cc3)c2=O)C1 (centres unmarked)
viable cells (OCI-LY19; annexin V/PI flow cytometry; 500 nM, 72 h, Q4 quadrant): 57.8%

CNS(=O)(=O)Nc1nccc(Cc2c(C)c3ccc(Oc4ncccc4F)cc3oc2=O)c1F
IC50 (NCI-H1694; cell viability; 7 days): > 1 µM

Nc1ncc(-c2cc(-c3cnn(CC(F)(F)F)c3)ncc2F)nc1C(=O)NC1CNCC(F)C1 (centres unmarked)
remaining binding (MAK; KINOMEscan; 1 µM; baseline: DMSO control): 100%

CC(=O)N[C@@H](CC(=O)O)C(=O)N[C@@H](CO)C(=O)N[C@@H](C)C(=O)N[C@@H](CC(=O)O)C(=O)COC(=O)c1c(C)cccc1C
cell lysis (THP-1 cells, LPS-primed; pyroptosis, LDH release; 25 µM, LPS 1 µg/mL, 4 h, added: nigericin 5 µM, 2 h): 92.3% and 84.7%

CC12CCCC(NS(=O)(=O)c3ccc(CCN)cc3)(C1)C1CC(C)(C)C1CC2 (centres unmarked)
inhibition (HT-29; cell growth or viability, CCK-8; 10 µM): < 50%

CCN(CC)CC(=O)Nc1cccc(-n2cc(-c3ccc4ccc(-c5cn(-c6cccc(NC(=O)CN(CC)CC)c6)nn5)cc4c3)nn2)c1
fold regulation (RCC4; PCR angiogenesis array, refers to: HIF1A; 5 x IC50, 6 h, normoxia; baseline: untreated): -1.58

CCN(C(=O)c1cc(F)ccc1Oc1nncnc1N1CCC2(C1)CN([C@H](CCCN(C)CCOC)C(C)C)C2)C(C)C
GI50 (JEG-3; cell growth or viability; 72 h): > 10 µM

Excerpt of the above:
COc1ccc(NC(=O)c2ccc3[nH]c(-c4ccc(N(C)C)cc4)nc3c2)cn1
dead cell to confluence ratio (HCEC-hTERT; IncuCyte; concentration not given, 24 h): 13.8 and 54.1 and 2.13

O=C(c1ccc(C2CCCCC2)cc1)N1CCCC1
hepatic clearance (hepatocyte stability; cryopreserved mouse hepatocytes; 1 µM): 79 mL/min/kg
